# Assay results collected from several papers.
# Protocols differ between the studies behind these lines. pIC50, pKd: −log10 of the molar value.
# USP49 ZnF-UBD domain: Ubiquitin carboxyl-terminal hydrolase 49, ZnF-UBD domain (USP49, Homo sapiens, UniProt Q70CQ1)
# Chain of UniProt Q70CQ1 (whole entry, looked up): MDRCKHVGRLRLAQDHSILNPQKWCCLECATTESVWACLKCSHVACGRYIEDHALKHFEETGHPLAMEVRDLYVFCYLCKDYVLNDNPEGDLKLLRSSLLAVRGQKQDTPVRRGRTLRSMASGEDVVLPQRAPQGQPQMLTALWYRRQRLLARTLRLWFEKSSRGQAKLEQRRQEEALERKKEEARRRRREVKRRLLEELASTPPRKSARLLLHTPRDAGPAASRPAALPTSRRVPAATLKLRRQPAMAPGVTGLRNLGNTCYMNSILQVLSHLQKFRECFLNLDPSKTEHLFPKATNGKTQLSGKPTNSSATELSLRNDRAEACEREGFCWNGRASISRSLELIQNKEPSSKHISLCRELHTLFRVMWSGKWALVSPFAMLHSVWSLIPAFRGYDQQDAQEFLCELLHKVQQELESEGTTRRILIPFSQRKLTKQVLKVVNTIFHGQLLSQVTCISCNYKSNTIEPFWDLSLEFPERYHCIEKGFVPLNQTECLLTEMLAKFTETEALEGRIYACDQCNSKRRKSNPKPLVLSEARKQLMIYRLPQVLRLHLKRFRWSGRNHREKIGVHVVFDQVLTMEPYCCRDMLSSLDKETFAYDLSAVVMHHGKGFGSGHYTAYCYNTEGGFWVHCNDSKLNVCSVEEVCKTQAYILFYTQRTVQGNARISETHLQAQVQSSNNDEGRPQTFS
SMILES,tested on,test,test system,setting,how to read,endpoint,value
Cc1ncc(NC(=O)c2ccc(CN3CCN(C)CC3)c(C(F)(F)F)c2)cc1Nc1nccc(-c2cccnc2)n1,NLRP3 inflammasome (mouse),,mouse BMDM,10 µM,,inhibition,11.2%
c1coc(-c2n[nH]cc2-c2ccnc3ccccc23)c1,orf19.6492 Candida albicans,"kinase binding, MIB/MS competition",Candida albicans lysate,1 µM,baseline: DMSO,log2 fold change,-0.22
Nc1nc2c(ncn2[C@@H]2O[C@H](COP(=O)(O)OP(=O)(O)O[C@H]3O[C@H](CO)[C@@H](O)[C@H](O)[C@@H]3O)[C@@H](O)[C@H]2O)c(=O)[nH]1,,"binding, equilibrium dialysis LC-MS",,"5 µM, thermostabilized A2AR-BRIL construct","baseline: no-protein control, direction not given",z-scored log2 fold change,0.111
OCCn1cc(-c2ccc3c(c2)CC/C3=N\O)c(-c2ccncc2)n1,iCell Cardiomyocytes (hiPSC-derived),xCELLigence Cardio impedance,,"concentration not given, 2 h",baseline: control,beat rate,119%
N=C(N)NCCCC(=O)O,,"binding, equilibrium dialysis LC-MS",,"5 µM, thermostabilized A2AR-BRIL construct","baseline: no-protein control, direction not given",z-scored log2 fold change,0.148
Cc1ncc(CO)c(CO)c1O,NLRP3 inflammasome (mouse),,mouse BMDM,10 µM,,inhibition,35.3%
C[N+](C)(C)CC(O)CC(=O)[O-] (stereo not drawn),,"binding, equilibrium dialysis LC-MS",,"5 µM, thermostabilized A2AR-BRIL construct","baseline: no-protein control, direction not given",z-scored log2 fold change,0.0559
Clc1ccc(Nc2nnc(Cc3ccncc3)c3ccccc23)cc1,iCell Cardiomyocytes (hiPSC-derived),xCELLigence Cardio impedance,,"concentration not given, 2 h",baseline: control,beat amplitude,101%
CNC(=O)CN1CCC(Oc2cc3c(Nc4cccc(Cl)c4F)ncnc3cc2OC)CC1,NLRP3 inflammasome (mouse),,mouse BMDM,10 µM,,inhibition,-54.1%
O=C(O)CCc1nccs1,USP49 ZnF-UBD domain,,,,,pKd,< 3.00
Nc1nc(=O)c2nc(CNc3ccc(C(=O)N[C@@H](CCC(=O)O)C(=O)O)cc3)cnc2[nH]1,,"binding, equilibrium dialysis LC-MS",,"5 µM, thermostabilized A2AR-BRIL construct","baseline: no-protein control, direction not given",z-scored log2 fold change,0.0936
OC(CCN1CCCCC1)(c1ccccc1)C1CC2C=CC1C2 (stereo not drawn),,resting-state EEG,healthy elderly humans,"oral, 2 mg, eyes closed, LS mean",,"power, Delta EEG, Pz-O1",8.2 µV²
C=CC(=O)N1CC/C(=C\c2ccc(F)c([N+](=O)[O-])c2)C(=O)/C(=C/c2ccc(F)c([N+](=O)[O-])c2)C1,human alphaherpesvirus 1,"viral replication, GFP signal","K26 GFP, 3D skin equivalent, air-liquid",48 h,,pIC50,6.82
O=Nc1c(-c2c(O)[nH]c3ccccc23)[nH]c2ccccc12,NLRP3 inflammasome (mouse),,mouse BMDM,10 µM,,inhibition,-19.9%
Cc1cc(NC(=O)CCC(=O)O)nn1C,USP49 ZnF-UBD domain,,,,,pKd,< 3.00
CC(=O)CC(=O)CCC(=O)O,,"binding, equilibrium dialysis LC-MS",,"5 µM, thermostabilized A2AR-BRIL construct","baseline: no-protein control, direction not given",z-scored log2 fold change,-0.353
C[C@H](Oc1ccc(Br)cc1-c1ccon1)C(=O)O,,muscle velocity recovery cycles,"human, tibialis anterior muscle","600 mg once daily, multiple doses, multiple ascending dose",baseline: placebo,interstimulus interval at ESN,0.602 ms
CN(C)c1ncnc2nc[nH]c12,,"binding, equilibrium dialysis LC-MS",,"5 µM, thermostabilized A2AR-BRIL construct","baseline: no-protein control, direction not given",z-scored log2 fold change,2.64
CN(C)C/C=C/C(=O)Nc1cc2c(Nc3ccc(F)c(Cl)c3)ncnc2cc1O[C@H]1CCOC1,iCell Cardiomyocytes (hiPSC-derived),xCELLigence Cardio impedance,,"concentration not given, 2 h",baseline: control,beat rate,104%
Cn1cc(-c2ccc(-c3cncc(Cl)c3N3CCC4(CCNC4=O)CC3)cc2)cn1,COLO 205,"microarray, item: CDKN1A",,"concentration not given, 6 h, gene set p21",baseline: untreated cells,fold change in expression,2.98
CC(C)NC(=O)[C@H]1CC[C@@H](n2/c(=N/C(=O)c3ccc(F)cc3)[nH]c3ccc(CN4CCC(C(C)(C)O)CC4)cc32)CC1,NLRP3 inflammasome (mouse),,mouse BMDM,10 µM,,inhibition,6.72%

# Repeated from above:
SMILES,tested on,test,test system,setting,how to read,endpoint,value
OC(CCN1CCCCC1)(c1ccccc1)C1CC2C=CC1C2 (stereo not drawn),,resting-state EEG,healthy elderly humans,"oral, 2 mg, eyes closed, LS mean",,"power, Delta EEG, Pz-O1",8.2 µV²
Cc1cc(NC(=O)CCC(=O)O)nn1C,USP49 ZnF-UBD domain,,,,,pKd,< 3.00
